Results gathered from unrelated publications.
Compare with care: the assays were run in different laboratories. ± marks the error that the study gave.
TDP1: Tyrosyl-DNA phosphodiesterase 1 (TDP1, Homo sapiens, UniProt Q9NUW8)
Sequence of UniProt Q9NUW8 (whole entry, looked up): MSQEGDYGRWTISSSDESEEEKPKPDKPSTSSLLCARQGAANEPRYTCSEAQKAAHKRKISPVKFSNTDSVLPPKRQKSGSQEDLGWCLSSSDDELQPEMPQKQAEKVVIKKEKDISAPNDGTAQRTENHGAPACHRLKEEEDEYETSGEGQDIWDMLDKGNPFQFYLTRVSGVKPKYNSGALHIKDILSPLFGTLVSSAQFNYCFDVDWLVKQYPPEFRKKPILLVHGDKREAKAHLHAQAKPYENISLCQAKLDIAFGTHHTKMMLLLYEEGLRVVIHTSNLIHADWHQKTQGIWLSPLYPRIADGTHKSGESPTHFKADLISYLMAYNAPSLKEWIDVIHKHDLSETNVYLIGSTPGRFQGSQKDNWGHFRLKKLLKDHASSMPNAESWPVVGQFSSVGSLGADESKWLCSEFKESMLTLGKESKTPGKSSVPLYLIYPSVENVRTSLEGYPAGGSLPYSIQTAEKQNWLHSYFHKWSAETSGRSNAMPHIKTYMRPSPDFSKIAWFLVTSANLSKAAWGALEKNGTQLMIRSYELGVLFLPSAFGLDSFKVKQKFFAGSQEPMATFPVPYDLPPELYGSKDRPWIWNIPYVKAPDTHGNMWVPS
Uncharacterized protein: Uncharacterized protein (Trypanosoma brucei brucei, UniProt Q386Q8)
C3ar1: C3a anaphylatoxin chemotactic receptor (C3ar1, Mus musculus, UniProt O09047)
Sequence of UniProt O09047 (whole entry, looked up): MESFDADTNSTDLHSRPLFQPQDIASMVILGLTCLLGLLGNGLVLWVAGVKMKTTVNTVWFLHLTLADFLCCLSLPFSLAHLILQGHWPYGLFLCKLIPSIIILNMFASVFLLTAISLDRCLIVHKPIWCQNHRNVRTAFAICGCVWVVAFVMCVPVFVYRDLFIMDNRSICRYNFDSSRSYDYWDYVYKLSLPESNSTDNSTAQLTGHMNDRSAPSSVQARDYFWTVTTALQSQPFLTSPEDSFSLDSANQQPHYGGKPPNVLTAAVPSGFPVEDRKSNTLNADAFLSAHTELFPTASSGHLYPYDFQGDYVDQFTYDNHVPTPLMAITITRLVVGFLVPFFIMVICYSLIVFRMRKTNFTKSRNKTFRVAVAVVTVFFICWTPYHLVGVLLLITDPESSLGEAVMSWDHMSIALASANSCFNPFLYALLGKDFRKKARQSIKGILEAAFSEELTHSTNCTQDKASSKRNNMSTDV
ppa: Inorganic pyrophosphatase (ppa, Escherichia coli, UniProt P0A7A9)
Sequence of UniProt P0A7A9 (whole entry, looked up): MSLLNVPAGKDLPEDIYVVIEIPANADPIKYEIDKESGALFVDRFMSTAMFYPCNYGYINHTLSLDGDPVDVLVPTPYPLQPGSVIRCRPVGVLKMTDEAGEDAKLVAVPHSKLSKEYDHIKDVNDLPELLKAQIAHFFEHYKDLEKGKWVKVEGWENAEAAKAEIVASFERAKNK
Sequence of UniProt P22310 (whole entry, looked up): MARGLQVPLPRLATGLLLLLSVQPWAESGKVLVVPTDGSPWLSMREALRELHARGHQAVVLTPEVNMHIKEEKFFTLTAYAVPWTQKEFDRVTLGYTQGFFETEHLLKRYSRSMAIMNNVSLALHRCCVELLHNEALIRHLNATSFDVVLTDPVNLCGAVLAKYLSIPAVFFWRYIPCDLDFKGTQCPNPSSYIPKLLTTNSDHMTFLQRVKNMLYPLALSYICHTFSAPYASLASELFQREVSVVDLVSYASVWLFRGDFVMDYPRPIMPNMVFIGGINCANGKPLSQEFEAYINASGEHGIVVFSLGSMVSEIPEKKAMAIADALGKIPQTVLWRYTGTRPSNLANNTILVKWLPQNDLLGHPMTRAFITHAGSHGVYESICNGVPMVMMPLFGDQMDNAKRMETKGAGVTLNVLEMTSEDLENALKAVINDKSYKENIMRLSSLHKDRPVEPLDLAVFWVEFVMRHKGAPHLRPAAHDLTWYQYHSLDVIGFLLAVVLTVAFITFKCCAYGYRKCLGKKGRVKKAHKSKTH
Sequence of UniProt Q9UKP6 (whole entry, looked up): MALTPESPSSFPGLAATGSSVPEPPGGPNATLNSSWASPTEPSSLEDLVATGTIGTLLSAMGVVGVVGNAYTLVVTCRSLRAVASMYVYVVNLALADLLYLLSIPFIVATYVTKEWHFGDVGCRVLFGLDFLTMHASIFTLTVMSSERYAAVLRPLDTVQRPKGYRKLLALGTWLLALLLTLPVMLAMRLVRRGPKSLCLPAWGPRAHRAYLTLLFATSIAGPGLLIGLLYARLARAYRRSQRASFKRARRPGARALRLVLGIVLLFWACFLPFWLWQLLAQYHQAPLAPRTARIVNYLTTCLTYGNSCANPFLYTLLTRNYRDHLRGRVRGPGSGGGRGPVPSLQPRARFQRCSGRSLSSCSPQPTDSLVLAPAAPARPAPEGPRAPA
Sequence of UniProt Q15391 (whole entry, unmodified, looked up): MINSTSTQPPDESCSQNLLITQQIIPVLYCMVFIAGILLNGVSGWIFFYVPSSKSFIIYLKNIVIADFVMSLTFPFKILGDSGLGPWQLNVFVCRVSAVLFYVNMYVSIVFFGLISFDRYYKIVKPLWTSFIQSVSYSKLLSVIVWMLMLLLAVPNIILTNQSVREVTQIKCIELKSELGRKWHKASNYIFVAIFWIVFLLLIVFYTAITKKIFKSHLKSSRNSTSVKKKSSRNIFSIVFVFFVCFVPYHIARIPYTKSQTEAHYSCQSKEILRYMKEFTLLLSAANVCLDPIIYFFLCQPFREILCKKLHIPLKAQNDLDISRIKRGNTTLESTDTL
Sequence of UniProt Q92847 (whole entry, unmodified, looked up): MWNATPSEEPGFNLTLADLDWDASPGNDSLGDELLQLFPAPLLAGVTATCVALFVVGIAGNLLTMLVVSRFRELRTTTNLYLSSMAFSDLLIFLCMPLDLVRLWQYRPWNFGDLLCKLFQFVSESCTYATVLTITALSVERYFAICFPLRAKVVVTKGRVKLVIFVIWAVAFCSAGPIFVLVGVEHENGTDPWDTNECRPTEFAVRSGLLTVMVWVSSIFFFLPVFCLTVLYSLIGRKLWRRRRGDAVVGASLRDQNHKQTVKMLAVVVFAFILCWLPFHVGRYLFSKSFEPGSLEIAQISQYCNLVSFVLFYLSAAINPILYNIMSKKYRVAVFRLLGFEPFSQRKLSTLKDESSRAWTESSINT
Sequence of UniProt P27448 (whole entry, looked up): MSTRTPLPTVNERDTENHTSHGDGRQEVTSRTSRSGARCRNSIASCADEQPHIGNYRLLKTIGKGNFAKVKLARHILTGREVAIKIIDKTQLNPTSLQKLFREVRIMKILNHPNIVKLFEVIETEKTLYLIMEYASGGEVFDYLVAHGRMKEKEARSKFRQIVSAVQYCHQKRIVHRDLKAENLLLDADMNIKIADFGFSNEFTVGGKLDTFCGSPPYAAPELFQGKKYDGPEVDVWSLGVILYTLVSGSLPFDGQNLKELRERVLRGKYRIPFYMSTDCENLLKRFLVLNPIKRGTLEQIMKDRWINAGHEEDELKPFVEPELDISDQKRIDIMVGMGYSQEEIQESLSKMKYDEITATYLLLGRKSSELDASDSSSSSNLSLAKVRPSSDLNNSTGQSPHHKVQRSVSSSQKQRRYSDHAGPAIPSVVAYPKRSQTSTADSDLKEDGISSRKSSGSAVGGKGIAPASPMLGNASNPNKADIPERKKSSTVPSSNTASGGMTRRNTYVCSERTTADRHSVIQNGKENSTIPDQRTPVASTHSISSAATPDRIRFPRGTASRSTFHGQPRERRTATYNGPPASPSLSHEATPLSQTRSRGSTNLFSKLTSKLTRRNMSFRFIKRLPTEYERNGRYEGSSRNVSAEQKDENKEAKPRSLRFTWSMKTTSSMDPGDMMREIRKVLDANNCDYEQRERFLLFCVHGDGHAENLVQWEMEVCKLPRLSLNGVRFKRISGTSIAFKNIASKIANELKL
Sequence of UniProt P07550 (whole entry, looked up): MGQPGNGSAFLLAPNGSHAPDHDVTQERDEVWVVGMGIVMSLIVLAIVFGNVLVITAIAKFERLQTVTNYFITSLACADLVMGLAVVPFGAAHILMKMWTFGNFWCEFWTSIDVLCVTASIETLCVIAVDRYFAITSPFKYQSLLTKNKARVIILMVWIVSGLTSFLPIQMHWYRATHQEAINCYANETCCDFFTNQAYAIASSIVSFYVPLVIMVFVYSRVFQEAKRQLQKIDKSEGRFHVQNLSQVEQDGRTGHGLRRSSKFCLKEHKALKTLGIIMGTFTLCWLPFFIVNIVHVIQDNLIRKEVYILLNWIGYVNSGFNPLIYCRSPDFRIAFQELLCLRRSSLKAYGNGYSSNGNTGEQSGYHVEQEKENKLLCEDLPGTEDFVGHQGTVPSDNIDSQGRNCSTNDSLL
Sequence of UniProt P41146 (whole entry, unmodified, looked up): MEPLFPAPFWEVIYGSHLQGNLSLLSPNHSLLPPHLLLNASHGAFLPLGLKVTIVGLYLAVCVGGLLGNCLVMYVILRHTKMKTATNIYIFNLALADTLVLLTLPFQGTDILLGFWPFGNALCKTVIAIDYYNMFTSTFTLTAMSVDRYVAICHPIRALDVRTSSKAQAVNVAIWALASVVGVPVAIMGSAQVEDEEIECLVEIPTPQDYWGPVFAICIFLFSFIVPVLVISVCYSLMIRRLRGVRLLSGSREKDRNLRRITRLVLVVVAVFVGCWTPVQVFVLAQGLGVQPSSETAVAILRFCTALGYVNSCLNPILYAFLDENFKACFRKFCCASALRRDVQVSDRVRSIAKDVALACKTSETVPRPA

For O=c1ccn([C@@H]2O[C@H](COP(=O)(O)CP(=O)(O)O)[C@@H](O)[C@H]2O)c(=S)[nH]1, the EC50 was 214 ± 61 nM (P2Y purinoceptor 14 (P2RY14, Homo sapiens, UniProt Q15391, V93A); calcium mobilisation, agonist; cells with Gαqi5; receptor mutant V93A).
For CSc1nc2ccccc2cc1C=NOCc1ccc(-c2nc3cc(-c4ccccc4)ccn3c2Nc2ccc(C(=O)O)cc2)cc1, the inhibition was 50.6% (TDP1; enzyme activity, inhibitor; 100 µM, unpurified compound).
C[N+](C)(C/C=C/CN1C(=O)c2ccccc2C1=O)CCCN1c2ccccc2CCc2ccc(Cl)cc21 has an IC50 of 39600 nM (Uncharacterized protein; enzyme activity, inhibitor, coupled colorimetric; with: E. coli pyrophosphatase coupling).
With Cc1nn(-c2cccc(N)c2)c(=O)c2cnc(Nc3ccc(N4CCNCC4)cc3)nc12 the IC50 was > 10000 nM (MAP/microtubule affinity-regulating kinase 3 (MARK3, Homo sapiens, UniProt P27448); kinase activity, inhibitor, SelectScreen kinase profiling).
With COc1ccc(C(=O)c2c(C(=O)NCCCN(C)C)oc3ccc(Cl)cc3c2=O)cc1OC the EC50 was 589 nM (Growth hormone secretagogue receptor type 1 (GHSR, Homo sapiens, UniProt Q92847, N305A); intracellular Ca2+, agonist; HEK293T transiently transfected).
The EC50 of CC(C)C[C@H](NC(=O)[C@@H](N)[C@@H](C)O)C(=O)N[C@@H](CCC(N)=O)C(=O)N1CCC[C@H]1C(=O)N1CCC[C@H]1C(=O)N[C@@H](C)C(=O)N[C@@H](CO)C(=O)N[C@@H](CO)C(=O)N[C@@H](CCCNC(=N)N)C(=O)N[C@@H](CCCNC(=N)N)C(=O)N[C@@H](CCCNC(=N)N)C(=O)N[C@@H](Cc1c[nH]cn1)C(=O)N[C@@H](Cc1ccccc1)C(=O)N[C@@H](Cc1c[nH]cn1)C(=O)N[C@@H](Cc1c[nH]cn1)C(=O)N[C@@H](C)C(=O)N[C@@H](CC(C)C)C(=O)N1CCC[C@H]1C(=O)N1CCC[C@H]1C(=O)N[C@@H](C)C(=O)N[C@@H](CCCNC(=N)N)C(=O)O is reported as 105 nM (C3ar1; beta-arrestin 1 recruitment, agonist, NanoBiT; mouse).
With COc1ccc(C(=O)CC2(O)C(=O)Nc3c(Br)cc(C)cc32)cc1 (stereo not drawn) the IC50 was > 100000 nM (Uncharacterized protein; inhibitor, coupled colorimetric; Trypanosoma brucei).
With CC(C)[C@H](NC(=O)[C@@H]1CSSC(C)(C)[C@H](NC(=O)[C@@H](N)CC(=O)O)C(=O)N[C@@H](Cc2ccccc2)C(=O)N[C@H](Cc2c[nH]c3ccccc23)C(=O)N[C@@H](CCCN)C(=O)N[C@@H](Cc2ccc(O)cc2)C(=O)N1)C(=O)O the EC50 was 60.3 nM (Urotensin-2 receptor (UTS2R, Homo sapiens, UniProt Q9UKP6); GoB activation, agonist, BRET2 biosensor; HEK293).
COc1ccc(OC)c(C2=Nn3c(nnc3-c3ccco3)SC2)c1 has an IC50 of > 100000 nM (ppa; enzyme activity, inhibitor).
With CC(=O)OC1CCC2(C)C(CCC3(C)C2CC=C2C4C(C)C(C)CCC4(C(=O)O)CCC23C)C1(C)C (stereo not drawn) the Ki was 640 nM (UDP-glucuronosyltransferase 1A4 (UGT1A4, Homo sapiens, UniProt P22310); enzyme activity, inhibitor).
The EC50 of CC(C)C[C@H](NC(=O)[C@H](C)NC(=O)[C@H](CO)NC(=O)[C@@H]1CCCN1C(=O)[C@@H]1CCCN1C(=O)[C@H](CCC(N)=O)NC(=O)[C@H](CC(C)C)NC(=O)[C@@H](N)[C@@H](C)O)C(=O)N[C@@H](CCCNC(=N)N)C(=O)N[C@@H](CCCNC(=N)N)C(=O)N[C@@H](CCCNC(=N)N)C(=O)N[C@@H](Cc1c[nH]cn1)C(=O)N[C@@H](Cc1ccc(O)cc1)C(=O)N[C@@H](Cc1c[nH]cn1)C(=O)N[C@@H](Cc1c[nH]cn1)C(=O)N[C@@H](C)C(=O)N[C@@H](CC(C)C)C(=O)N1CCC[C@H]1C(=O)N1CCC[C@H]1C(=O)N[C@@H](CO)C(=O)N[C@@H](CCCNC(=N)N)C(=O)O is reported as 135 nM (C3ar1; cAMP response, agonist, GloSensor).
With Cn1ccc2c(N3CCN(CCCCOc4ccc5c(c4)NC(=O)CC5)CC3)cccc21 the Ki was 80 nM (Beta-2 adrenergic receptor (ADRB2, Homo sapiens, UniProt P07550); ligand displacement, radioligand).
O=C(NCCCN1CCC2(CC1)OCc1ccccc12)C1CCCN1Cc1ccccc1 (stereo not drawn) has a Ki of 32 nM (Nociceptin receptor (OPRL1, Homo sapiens, UniProt P41146, Q107A)).
CC(=O)ON=Cc1c(C)c(C=NOCc2ccc(-c3nc4cc(-c5ccccc5)ccn4c3Nc3ccc(C(=O)O)cc3)cc2)n2ccccc12 gave an inhibition of 99% (TDP1; enzyme activity, inhibitor; 100 µM, unpurified oxime).
The IC50 of Cc1ccc2c(c1Br)C(O)(CC(=O)c1ccc(F)cc1)C(=O)N2 (stereo not drawn) is reported as > 100000 nM (ppa; enzyme activity, inhibitor).

Repeated from above:
For O=c1ccn([C@@H]2O[C@H](COP(=O)(O)CP(=O)(O)O)[C@@H](O)[C@H]2O)c(=S)[nH]1, the EC50 was 214 ± 61 nM (P2Y purinoceptor 14 (P2RY14, Homo sapiens, UniProt Q15391, V93A); calcium mobilisation, agonist; cells with Gαqi5; receptor mutant V93A).
For CSc1nc2ccccc2cc1C=NOCc1ccc(-c2nc3cc(-c4ccccc4)ccn3c2Nc2ccc(C(=O)O)cc2)cc1, the inhibition was 50.6% (TDP1; enzyme activity, inhibitor; 100 µM, unpurified compound).
